{"data": "Assay results from different studies", "note": "A part holds a random share of what one study measured. Changes are numbered by the printed parent chain.", "sequence of UniProt Q9XED8 (whole entry, looked up)": "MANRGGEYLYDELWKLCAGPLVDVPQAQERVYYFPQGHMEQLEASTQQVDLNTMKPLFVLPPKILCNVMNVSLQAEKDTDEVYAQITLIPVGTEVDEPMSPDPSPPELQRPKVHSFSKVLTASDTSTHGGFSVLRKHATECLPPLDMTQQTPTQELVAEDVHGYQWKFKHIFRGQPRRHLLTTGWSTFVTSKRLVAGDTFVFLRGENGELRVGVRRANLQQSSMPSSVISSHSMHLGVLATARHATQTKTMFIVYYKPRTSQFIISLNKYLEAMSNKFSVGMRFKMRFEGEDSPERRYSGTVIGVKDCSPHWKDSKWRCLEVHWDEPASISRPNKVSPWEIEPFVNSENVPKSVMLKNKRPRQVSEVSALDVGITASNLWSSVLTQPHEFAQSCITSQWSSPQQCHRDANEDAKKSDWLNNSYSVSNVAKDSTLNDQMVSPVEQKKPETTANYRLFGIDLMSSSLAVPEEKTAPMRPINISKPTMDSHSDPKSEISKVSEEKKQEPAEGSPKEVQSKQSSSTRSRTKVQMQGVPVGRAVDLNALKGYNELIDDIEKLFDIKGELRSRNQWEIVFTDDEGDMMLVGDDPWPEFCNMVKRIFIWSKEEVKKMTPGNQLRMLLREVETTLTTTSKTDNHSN", "sequence of UniProt Q9C7I9 (whole entry, looked up)": "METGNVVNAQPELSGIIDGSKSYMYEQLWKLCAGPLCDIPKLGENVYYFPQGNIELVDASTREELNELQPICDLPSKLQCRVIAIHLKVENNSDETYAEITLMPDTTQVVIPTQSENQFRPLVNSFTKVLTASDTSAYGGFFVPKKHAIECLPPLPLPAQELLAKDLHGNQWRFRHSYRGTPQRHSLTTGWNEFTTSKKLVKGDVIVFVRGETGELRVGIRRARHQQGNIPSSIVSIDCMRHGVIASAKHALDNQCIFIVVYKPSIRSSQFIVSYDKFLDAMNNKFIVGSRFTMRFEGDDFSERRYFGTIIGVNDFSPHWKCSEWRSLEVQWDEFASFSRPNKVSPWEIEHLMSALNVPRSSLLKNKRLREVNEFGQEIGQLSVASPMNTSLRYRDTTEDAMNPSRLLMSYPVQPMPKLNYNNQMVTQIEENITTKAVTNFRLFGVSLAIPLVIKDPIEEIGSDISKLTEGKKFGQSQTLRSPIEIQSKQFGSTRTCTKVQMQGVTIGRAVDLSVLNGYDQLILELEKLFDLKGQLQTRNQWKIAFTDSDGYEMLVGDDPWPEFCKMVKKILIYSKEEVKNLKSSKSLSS", "sequence of UniProt Q9ZTX8 (whole entry, looked up)": "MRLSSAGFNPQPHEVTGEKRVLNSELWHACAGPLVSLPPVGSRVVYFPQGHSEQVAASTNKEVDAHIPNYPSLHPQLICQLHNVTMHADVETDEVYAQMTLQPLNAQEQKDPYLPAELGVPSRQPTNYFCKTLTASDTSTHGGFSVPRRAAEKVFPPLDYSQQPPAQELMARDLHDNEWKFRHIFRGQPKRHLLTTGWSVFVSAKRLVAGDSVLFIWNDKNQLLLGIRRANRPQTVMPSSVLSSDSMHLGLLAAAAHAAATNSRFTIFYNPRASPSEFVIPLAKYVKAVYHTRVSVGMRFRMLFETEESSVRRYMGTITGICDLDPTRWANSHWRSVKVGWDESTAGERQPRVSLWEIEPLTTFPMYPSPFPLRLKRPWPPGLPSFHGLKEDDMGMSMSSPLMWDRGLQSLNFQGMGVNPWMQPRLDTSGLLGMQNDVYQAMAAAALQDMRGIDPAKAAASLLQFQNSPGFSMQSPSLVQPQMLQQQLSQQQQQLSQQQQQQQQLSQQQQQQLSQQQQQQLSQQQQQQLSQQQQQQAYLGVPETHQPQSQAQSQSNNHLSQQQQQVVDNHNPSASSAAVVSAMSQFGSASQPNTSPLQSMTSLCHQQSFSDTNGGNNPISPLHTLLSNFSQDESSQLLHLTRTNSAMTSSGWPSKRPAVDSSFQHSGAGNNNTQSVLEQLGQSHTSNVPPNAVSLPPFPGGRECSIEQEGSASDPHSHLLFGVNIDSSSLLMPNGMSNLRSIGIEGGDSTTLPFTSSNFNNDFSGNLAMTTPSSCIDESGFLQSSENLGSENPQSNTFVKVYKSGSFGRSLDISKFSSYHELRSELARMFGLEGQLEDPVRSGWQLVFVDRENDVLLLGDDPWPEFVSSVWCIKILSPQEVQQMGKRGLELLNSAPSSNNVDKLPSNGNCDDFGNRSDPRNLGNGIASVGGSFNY", "sequence of UniProt Q9LQE8 (whole entry, looked up)": "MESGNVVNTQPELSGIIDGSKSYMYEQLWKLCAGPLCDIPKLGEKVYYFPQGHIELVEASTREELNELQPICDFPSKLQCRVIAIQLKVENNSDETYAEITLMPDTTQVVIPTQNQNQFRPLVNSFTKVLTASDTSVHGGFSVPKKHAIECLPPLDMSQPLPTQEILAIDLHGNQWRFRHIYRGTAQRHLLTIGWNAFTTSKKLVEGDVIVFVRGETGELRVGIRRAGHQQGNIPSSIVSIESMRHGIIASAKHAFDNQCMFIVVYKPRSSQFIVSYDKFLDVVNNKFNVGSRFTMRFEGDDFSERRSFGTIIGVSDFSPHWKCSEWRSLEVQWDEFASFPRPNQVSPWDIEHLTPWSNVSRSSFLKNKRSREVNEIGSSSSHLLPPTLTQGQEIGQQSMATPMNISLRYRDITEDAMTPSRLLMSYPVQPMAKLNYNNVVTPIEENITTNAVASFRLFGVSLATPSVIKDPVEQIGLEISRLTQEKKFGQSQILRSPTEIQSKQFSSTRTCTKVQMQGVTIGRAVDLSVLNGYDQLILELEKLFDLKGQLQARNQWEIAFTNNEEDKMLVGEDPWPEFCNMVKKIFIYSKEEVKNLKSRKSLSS", "sequence of UniProt P93022 (whole entry, looked up)": "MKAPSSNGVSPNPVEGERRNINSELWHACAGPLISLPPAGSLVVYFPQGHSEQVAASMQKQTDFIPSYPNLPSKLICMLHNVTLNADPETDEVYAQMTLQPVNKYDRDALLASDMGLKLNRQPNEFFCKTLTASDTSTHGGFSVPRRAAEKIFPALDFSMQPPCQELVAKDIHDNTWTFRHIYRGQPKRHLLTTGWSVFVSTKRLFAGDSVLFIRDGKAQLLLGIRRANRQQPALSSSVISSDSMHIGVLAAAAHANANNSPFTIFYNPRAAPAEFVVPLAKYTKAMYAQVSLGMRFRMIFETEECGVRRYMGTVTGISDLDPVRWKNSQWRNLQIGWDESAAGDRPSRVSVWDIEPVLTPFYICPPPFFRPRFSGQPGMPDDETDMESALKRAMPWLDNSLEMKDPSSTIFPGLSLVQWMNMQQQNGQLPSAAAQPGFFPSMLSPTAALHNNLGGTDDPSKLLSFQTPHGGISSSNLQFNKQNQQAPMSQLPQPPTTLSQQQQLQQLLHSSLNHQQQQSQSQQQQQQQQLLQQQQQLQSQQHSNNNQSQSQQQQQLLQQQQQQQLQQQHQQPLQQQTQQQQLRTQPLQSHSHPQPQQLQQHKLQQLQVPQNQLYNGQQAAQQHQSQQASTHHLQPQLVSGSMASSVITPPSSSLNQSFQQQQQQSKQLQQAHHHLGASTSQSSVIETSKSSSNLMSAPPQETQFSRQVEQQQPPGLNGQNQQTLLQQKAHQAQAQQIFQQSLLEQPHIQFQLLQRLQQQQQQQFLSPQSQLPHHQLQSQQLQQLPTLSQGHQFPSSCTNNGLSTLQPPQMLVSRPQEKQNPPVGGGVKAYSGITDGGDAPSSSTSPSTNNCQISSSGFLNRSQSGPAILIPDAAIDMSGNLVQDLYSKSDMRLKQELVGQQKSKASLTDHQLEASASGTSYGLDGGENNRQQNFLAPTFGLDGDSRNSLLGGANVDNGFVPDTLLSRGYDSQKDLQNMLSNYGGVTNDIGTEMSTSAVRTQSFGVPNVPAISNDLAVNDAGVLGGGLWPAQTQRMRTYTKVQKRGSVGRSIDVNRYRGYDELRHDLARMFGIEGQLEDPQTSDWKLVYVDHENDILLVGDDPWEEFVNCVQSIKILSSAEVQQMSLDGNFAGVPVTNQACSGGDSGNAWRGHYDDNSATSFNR"}
{"data": "Set 1", "target": "PABPC1L2, full length, GST fusion (mouse, UniProt A0ABA7IW68)", "method": "RNAcompete", "molecule type": "RNA", "sample": "in vitro", "concentration": "20 nM", "setting": "7-mer, probes averaged, single round", "baseline": "mean of 7-mers", "direction": "higher = stronger binding", "Construct (chain)": "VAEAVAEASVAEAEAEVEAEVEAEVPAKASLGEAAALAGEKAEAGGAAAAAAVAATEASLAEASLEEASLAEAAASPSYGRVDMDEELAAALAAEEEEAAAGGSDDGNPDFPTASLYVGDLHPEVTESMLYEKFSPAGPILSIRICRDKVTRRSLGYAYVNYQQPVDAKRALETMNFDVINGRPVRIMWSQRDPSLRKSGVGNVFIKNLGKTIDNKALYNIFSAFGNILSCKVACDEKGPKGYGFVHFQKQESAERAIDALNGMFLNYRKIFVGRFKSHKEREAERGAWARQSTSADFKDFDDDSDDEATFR"}
{"Strand": "UUAUUCG", "7-mer Z-score": -0.335}
{"Strand": "UCUACCA", "7-mer Z-score": -0.144}
{"Strand": "UGUAGAC", "7-mer Z-score": -0.146}
{"Strand": "UCCGUAU", "7-mer Z-score": -0.393}
{"Strand": "ACUACUG", "7-mer Z-score": -0.151}
{"Strand": "ACACCGU", "7-mer Z-score": -0.0881}
{"Strand": "CGGAAGU", "7-mer Z-score": 0.1}
{"Strand": "UAGCAAU", "7-mer Z-score": -0.0881}
{"data": "Set 2", "Molecule": "ETT (Arabidopsis thaliana, UniProt O23661)", "method": "two-hybrid", "direction": "higher = firmer interaction", "sequence of UniProt O23661 (whole entry, looked up)": "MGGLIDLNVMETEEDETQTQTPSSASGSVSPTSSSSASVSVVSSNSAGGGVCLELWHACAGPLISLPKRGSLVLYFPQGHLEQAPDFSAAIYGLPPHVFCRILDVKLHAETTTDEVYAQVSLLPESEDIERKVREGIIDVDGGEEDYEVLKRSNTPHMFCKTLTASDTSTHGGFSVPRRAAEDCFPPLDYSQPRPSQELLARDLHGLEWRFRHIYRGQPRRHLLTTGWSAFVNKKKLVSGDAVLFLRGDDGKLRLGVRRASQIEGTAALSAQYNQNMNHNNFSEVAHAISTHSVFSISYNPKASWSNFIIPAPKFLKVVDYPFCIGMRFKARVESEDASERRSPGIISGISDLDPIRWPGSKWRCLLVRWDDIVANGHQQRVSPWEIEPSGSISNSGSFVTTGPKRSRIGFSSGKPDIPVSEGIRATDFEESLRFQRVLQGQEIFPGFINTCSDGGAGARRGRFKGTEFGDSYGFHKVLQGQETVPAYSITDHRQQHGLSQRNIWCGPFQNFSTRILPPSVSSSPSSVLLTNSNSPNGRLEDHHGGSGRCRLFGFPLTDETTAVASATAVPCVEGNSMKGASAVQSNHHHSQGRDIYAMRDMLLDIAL"}
{"partner": "ARF20 484-590 (Arabidopsis thaliana, UniProt Q9C7I9)", "baseline": "out of 2 tests", "positive tests": 0}
{"partner": "ARF14 497-605 (Arabidopsis thaliana, UniProt Q9LQE8)", "baseline": "out of 0 tests", "positive tests": 0}
{"partner": "ARF17 (Arabidopsis thaliana, UniProt Q84WU6)", "setting": "weak activation fusion", "baseline": "out of 2 tests", "positive tests": 0}
{"partner": "ARF13 (Arabidopsis thaliana, UniProt Q9FX25)", "baseline": "out of 2 tests", "positive tests": 0}
{"partner": "ARF4 660-788 (Arabidopsis thaliana, UniProt Q9ZTX9)", "baseline": "out of 2 tests", "positive tests": 0}
{"partner": "ARF6 790-935 (Arabidopsis thaliana, UniProt Q9ZTX8)", "baseline": "out of 3 tests", "positive tests": 0}
{"partner": "ARF7 1030-1164 (Arabidopsis thaliana, UniProt P93022)", "baseline": "out of 3 tests", "positive tests": 0}
{"partner": "ARF9 519-638 (Arabidopsis thaliana, UniProt Q9XED8)", "setting": "weak activation fusion", "baseline": "out of 2 tests", "positive tests": 0}
{"data": "Mixed results", "P1": "viral docking peptide; KGVKRKLFAEDSS; partner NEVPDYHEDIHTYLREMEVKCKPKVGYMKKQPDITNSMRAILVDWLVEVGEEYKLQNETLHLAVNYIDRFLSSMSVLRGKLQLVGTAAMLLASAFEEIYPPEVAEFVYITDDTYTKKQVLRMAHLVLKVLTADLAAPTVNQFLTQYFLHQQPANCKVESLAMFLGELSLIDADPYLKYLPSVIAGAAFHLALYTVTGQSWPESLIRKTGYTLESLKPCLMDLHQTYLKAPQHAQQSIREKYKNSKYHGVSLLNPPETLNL"}
{"Molecule": "PhoQ, residues 284 288 289 292 302 303 TAVSDG", "target": "PhoP, residues 12 14 15 18 19 TPLRH (Escherichia coli, UniProt P23836)", "assay": "Sort-seq, measured: YFP reporter", "test system": "E. coli", "conditions": "PhoQ-PhoP variant library, added: 10 µM Mg2+", "how to read": "baseline: high Mg2+ state, higher = stronger signaling", "quantity": "fold induction", "result": 0.563}
{"Molecule": "P1 S12F", "target": "CCNA2, cyclin fold, Cln2 fusion (human)", "assay": "yeast growth competition, sequencing", "test system": "yeast", "conditions": "strong parent motif", "how to read": "baseline: not given, higher = stronger binding", "quantity": "normalised enrichment score", "result": 6.46}
{"note": "Some of these lines once more (set 1):"}
{"Strand": "ACACCGU", "7-mer Z-score": -0.0881}
